Measured values collected from several papers.
Parts stem from different laboratories: compare values within a part only. Values joined by “and” are separate records of one study, mostly repeats; a detail may differ.
UniProt P42336, sequence (whole entry, unmodified, looked up): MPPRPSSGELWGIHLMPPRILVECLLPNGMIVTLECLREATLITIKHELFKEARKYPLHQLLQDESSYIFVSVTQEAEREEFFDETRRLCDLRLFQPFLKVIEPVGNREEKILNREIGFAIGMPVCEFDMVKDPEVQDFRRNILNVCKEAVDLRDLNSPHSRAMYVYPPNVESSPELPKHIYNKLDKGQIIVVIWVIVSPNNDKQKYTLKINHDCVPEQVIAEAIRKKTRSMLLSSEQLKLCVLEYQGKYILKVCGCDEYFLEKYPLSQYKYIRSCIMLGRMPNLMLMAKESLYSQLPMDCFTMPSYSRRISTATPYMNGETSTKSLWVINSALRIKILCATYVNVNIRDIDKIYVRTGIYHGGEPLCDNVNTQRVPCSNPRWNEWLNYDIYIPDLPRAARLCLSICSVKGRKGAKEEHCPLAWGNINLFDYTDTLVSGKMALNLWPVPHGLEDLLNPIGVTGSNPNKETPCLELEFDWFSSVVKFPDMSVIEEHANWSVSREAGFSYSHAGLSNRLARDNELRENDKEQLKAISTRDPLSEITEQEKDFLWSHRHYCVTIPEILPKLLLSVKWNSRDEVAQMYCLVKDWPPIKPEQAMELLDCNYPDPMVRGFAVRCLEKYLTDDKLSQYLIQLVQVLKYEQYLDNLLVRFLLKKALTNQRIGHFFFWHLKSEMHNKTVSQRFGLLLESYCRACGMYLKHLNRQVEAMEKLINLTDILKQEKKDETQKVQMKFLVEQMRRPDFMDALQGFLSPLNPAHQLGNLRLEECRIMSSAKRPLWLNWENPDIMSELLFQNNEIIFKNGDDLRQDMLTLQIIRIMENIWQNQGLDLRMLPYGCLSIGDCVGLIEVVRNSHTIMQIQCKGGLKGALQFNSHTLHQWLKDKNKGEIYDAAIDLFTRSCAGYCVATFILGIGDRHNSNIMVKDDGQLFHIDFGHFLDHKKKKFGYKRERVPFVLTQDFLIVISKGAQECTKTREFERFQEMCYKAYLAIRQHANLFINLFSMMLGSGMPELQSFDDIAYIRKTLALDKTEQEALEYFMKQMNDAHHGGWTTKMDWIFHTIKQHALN
UniProt P23443, sequence (whole entry, looked up): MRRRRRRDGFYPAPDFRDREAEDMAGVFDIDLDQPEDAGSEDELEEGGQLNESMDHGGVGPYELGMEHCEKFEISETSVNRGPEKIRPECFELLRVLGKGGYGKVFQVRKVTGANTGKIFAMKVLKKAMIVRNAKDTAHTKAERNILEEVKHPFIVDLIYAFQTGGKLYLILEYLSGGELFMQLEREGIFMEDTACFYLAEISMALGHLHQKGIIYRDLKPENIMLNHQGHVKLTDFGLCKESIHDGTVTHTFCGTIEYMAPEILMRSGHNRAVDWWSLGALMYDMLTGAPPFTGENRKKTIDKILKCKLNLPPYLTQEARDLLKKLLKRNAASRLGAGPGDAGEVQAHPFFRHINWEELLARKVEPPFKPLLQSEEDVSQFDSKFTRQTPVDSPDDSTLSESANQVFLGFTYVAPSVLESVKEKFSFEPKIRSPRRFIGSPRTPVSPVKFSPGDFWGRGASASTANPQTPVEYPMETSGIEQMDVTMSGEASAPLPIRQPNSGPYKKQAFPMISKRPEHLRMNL
UniProt O00444, sequence (whole entry, looked up): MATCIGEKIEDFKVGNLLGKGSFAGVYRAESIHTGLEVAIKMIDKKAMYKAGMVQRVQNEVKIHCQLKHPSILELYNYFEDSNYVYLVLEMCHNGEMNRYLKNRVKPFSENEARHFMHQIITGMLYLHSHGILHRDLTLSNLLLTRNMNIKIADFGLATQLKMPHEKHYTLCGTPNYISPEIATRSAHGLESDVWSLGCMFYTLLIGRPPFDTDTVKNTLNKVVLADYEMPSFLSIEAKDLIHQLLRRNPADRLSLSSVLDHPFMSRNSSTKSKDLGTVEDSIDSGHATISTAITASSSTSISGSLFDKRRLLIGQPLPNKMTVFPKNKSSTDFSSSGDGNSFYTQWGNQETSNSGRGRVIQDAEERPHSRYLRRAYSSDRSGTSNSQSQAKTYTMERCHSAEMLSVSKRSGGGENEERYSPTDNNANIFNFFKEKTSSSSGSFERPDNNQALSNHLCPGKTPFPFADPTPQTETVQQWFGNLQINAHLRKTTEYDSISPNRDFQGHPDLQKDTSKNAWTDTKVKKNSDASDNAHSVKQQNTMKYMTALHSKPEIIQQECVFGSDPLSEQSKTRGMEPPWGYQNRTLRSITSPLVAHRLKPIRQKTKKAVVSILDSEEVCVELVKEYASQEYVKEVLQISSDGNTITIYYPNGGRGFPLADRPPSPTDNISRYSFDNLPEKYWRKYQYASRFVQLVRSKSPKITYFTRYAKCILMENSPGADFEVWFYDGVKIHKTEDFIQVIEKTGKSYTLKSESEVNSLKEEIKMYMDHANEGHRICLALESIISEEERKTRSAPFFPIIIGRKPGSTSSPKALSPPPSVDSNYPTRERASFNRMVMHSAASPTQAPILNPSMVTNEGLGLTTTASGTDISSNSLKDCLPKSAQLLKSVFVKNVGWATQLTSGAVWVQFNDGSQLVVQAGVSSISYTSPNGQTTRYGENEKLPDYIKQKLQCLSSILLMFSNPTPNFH
UniProt O15111, sequence (whole entry, looked up): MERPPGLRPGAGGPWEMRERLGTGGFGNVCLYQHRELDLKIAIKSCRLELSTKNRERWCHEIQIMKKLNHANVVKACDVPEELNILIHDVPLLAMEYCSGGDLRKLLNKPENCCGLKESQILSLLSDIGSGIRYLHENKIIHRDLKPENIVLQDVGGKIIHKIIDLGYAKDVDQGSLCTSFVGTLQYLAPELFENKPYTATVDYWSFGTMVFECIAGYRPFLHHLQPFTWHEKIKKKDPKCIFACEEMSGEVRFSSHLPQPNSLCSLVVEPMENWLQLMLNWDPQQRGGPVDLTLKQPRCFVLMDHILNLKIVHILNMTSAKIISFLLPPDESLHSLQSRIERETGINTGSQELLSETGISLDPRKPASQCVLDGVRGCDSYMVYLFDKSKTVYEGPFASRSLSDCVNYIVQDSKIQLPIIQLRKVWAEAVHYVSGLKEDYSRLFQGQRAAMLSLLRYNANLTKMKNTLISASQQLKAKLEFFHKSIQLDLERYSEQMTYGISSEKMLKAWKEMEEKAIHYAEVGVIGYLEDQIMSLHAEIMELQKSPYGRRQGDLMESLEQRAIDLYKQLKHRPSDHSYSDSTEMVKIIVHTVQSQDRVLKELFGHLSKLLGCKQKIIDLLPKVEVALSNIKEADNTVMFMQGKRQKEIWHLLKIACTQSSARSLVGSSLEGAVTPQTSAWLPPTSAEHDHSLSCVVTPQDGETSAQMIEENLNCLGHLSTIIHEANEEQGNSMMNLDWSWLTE
UniProt P11362, sequence (whole entry, looked up): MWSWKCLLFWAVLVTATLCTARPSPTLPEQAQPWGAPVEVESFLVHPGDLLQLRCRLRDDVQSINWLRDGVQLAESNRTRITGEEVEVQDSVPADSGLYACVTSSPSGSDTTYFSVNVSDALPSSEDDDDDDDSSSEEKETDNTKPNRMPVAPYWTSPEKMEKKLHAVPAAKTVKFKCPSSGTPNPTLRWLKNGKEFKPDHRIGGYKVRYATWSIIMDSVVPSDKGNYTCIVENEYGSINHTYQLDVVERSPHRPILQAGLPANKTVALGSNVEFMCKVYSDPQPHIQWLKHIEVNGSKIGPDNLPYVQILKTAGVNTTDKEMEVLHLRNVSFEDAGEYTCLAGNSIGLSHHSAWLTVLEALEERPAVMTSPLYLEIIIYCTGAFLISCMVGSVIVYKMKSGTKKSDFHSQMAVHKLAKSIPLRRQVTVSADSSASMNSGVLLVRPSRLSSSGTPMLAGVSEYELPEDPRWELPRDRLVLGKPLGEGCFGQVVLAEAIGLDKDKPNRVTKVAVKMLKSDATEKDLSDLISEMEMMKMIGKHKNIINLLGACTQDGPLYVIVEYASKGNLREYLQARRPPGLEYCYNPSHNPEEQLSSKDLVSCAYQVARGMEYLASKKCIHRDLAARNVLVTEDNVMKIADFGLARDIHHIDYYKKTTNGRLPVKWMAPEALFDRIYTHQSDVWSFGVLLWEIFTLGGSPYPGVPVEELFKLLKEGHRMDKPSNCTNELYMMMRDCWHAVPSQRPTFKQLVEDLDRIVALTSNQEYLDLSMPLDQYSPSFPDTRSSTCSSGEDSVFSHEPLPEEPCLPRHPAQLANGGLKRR
UniProt Q6PHR2, sequence (whole entry, looked up): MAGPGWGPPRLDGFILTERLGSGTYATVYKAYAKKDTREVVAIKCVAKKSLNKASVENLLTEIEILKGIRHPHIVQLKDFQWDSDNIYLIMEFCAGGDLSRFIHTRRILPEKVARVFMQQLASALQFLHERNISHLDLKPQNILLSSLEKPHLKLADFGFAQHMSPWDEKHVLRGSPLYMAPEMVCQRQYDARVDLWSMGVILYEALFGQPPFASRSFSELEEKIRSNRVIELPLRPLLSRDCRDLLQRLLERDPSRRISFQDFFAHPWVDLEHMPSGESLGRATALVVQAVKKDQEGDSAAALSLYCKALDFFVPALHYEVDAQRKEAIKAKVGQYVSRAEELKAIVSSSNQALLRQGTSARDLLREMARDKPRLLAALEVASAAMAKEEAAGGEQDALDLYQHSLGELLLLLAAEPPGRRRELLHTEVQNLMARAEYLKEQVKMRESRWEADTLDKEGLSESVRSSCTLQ
UniProt Q9P289, sequence (whole entry, looked up): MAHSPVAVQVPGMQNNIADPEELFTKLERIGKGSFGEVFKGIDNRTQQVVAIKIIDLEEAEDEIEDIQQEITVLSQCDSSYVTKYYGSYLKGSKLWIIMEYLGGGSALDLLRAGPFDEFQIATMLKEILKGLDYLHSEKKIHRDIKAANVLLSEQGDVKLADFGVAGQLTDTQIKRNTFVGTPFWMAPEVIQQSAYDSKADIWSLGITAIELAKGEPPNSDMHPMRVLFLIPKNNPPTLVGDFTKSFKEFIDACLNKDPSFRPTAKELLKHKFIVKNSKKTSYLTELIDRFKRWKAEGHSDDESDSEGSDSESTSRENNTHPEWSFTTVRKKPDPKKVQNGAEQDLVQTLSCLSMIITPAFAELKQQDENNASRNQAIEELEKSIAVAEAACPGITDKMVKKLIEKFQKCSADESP

Set 1 — method: phase 2a trial; host: idiopathic pulmonary fibrosis patients
Structure (SMILES): CC(C)n1cnc(-c2ccc(F)cc2)c1-c1ncc(C(=O)Nc2ccc(N3CCN(C)CC3)cc2)[nH]1
| dose | setting | patients with anaemia |
| --- | --- | --- |
| 60 mg once daily | adverse event grade 4 | 0% |
| 30 mg once daily | adverse event grade 4 | 0% |
| 30 mg once daily | adverse event grade 1 | 0% |
| dose not given | adverse event grade 2, all dose arms pooled | 0% |
| 30 mg once daily | adverse event grade 5 | 0% |
| 60 mg once daily | adverse event grade 1 | 0% |
| 60 mg once daily | adverse event grade 2 | 0% |

Set 2 — method: electrocardiography
SMILES: COc1cc(C(=O)OCCCN2CCCN(CCCOC(=O)c3cc(OC)c(OC)c(OC)c3)CC2)cc(OC)c1OC
| host | route | dose | time | heart rate |
| --- | --- | --- | --- | --- |
| mouse | intravenous | 30 mg/kg | 30 min | 377 beats/min and 438 beats/min and 418 beats/min and 392 beats/min and 409 beats/min and 274 beats/min |
| mouse | intravenous | 30 mg/kg | baseline | 540 beats/min and 609 beats/min and 612 beats/min and 558 beats/min and 665 beats/min and 579 beats/min |
| mouse | intraperitoneal | 10 mg/kg | before dosing | 594 beats/min and 588 beats/min and 598 beats/min |
| mouse | intraperitoneal | 30 mg/kg | before dosing | 607 beats/min and 569 beats/min and 587 beats/min |
| mice | intraperitoneal | 30 mg/kg | 10 min | 559 beats/min and 550 beats/min and 560 beats/min |

Set 3 — read-out: cell-free assay; method: competition with immobilised ligand; concentration: 1 µM
SMILES: COc1ccc2c(c1)O[C@H](c1ccc(OC)c(OC)c1)C[C@@H]2NC(=O)C1(c2ccc3c(c2)OC(F)(F)O3)CC1
| target | remaining binding [%] |
| --- | --- |
| Mitogen-activated protein kinase kinase kinase 2 (MAP3K2, Homo sapiens, UniProt Q9Y2U5) | 91 |
| Mast/stem cell growth factor receptor Kit (KIT, Homo sapiens, UniProt P10721, V559D/V654A) | 100 |
| Cyclin-dependent kinase 18 (CDK18, Homo sapiens, UniProt Q07002) | 100 |
| Epidermal growth factor receptor (EGFR, Homo sapiens, UniProt P00533, del746-750) | 64 |
| Serine/threonine-protein kinase 26 (STK26, Homo sapiens, UniProt Q9P289) | 84 |
| Receptor-type tyrosine-protein kinase FLT3 (FLT3, Homo sapiens, UniProt P36888, D835V) | 92 |
| Inhibitor of nuclear factor kappa-B kinase subunit alpha (CHUK, Homo sapiens, UniProt O15111) | 89 |
| Phosphatidylinositol 4,5-bisphosphate 3-kinase catalytic subunit alpha isoform (PIK3CA, Homo sapiens, UniProt P42336, Q546K) | 100 |
| Serine/threonine-protein kinase ULK3 (ULK3, Homo sapiens, UniProt Q6PHR2) | 90 |
| Serine/threonine-protein kinase PLK4 (PLK4, Homo sapiens, UniProt O00444) | 89 |
| Tyrosine-protein kinase ABL1, phosphorylated (ABL1, Homo sapiens, UniProt P00519, H396P) | 98 |
| Ribosomal protein S6 kinase beta-1 (RPS6KB1, Homo sapiens, UniProt P23443) | 91 |
| Fibroblast growth factor receptor 1 (FGFR1, Homo sapiens, UniProt P11362) | 87 |
| Ribosomal protein S6 kinase alpha-6, N-terminal kinase domain (RPS6KA6, Homo sapiens, UniProt Q9UK32) | 87 |
| Epidermal growth factor receptor (EGFR, Homo sapiens, UniProt P00533, A750P/del747-749) | 98 |

Set 4 — host: human patients; matrix: plasma
Structure (SMILES): COc1ccc(-c2c(Nc3ccccn3)[nH]c3c(C4=CCCCC4)c(-c4ccccc4)nn3c2=O)cc1
| refers to | dose | time | median concentration [ng/mL] |
| --- | --- | --- | --- |
| S-adenosylmethionine | 100 mg once daily | 8 h | 16 |
| S-adenosylmethionine | 200 mg once daily | 4 h | 13.7 |
| methionine | 150 mg once daily | 4 h | 92600 |
| methionine | 400 mg once daily | 0 h | 80400 |
| S-adenosylmethionine | 150 mg once daily | 0 h | 11.9 |

Some of these lines once more (set 3):
| target | remaining binding [%] |
| --- | --- |
| Ribosomal protein S6 kinase beta-1 (RPS6KB1, Homo sapiens, UniProt P23443) | 91 |
| Mast/stem cell growth factor receptor Kit (KIT, Homo sapiens, UniProt P10721, V559D/V654A) | 100 |
| Cyclin-dependent kinase 18 (CDK18, Homo sapiens, UniProt Q07002) | 100 |
